Literature values as cited in several papers.
Protocols differ between the studies behind these lines. ± gives the spread as reported.
Chain of UniProt Q08881 (whole entry, looked up): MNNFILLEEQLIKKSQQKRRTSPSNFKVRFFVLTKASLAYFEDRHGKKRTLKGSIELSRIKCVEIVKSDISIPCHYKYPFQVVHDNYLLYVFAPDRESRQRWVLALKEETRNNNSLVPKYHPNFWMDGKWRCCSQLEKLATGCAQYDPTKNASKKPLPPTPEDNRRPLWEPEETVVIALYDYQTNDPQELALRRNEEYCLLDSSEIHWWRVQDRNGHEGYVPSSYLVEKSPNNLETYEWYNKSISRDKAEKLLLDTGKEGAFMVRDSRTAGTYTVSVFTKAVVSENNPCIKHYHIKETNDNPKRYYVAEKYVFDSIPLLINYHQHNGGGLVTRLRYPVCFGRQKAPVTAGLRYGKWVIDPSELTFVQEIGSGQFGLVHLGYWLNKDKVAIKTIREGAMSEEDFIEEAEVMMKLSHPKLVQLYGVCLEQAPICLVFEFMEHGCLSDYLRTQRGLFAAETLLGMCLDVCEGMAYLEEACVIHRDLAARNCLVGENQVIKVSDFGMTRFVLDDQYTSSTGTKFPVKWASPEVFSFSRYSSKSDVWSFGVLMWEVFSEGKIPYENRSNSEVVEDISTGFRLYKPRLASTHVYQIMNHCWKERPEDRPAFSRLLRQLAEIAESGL
Chain of UniProt Q96LA8 (whole entry, looked up): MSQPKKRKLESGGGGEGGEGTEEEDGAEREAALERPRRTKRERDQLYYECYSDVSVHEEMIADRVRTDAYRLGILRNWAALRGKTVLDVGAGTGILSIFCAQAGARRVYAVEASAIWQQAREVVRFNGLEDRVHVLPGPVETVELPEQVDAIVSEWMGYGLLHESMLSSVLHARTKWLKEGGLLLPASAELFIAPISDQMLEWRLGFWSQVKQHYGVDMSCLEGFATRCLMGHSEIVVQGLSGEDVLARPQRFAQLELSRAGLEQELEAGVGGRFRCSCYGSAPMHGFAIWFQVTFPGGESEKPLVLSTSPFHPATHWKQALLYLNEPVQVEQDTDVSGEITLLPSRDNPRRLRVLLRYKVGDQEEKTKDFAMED
Chain of UniProt P06536 (whole entry, looked up): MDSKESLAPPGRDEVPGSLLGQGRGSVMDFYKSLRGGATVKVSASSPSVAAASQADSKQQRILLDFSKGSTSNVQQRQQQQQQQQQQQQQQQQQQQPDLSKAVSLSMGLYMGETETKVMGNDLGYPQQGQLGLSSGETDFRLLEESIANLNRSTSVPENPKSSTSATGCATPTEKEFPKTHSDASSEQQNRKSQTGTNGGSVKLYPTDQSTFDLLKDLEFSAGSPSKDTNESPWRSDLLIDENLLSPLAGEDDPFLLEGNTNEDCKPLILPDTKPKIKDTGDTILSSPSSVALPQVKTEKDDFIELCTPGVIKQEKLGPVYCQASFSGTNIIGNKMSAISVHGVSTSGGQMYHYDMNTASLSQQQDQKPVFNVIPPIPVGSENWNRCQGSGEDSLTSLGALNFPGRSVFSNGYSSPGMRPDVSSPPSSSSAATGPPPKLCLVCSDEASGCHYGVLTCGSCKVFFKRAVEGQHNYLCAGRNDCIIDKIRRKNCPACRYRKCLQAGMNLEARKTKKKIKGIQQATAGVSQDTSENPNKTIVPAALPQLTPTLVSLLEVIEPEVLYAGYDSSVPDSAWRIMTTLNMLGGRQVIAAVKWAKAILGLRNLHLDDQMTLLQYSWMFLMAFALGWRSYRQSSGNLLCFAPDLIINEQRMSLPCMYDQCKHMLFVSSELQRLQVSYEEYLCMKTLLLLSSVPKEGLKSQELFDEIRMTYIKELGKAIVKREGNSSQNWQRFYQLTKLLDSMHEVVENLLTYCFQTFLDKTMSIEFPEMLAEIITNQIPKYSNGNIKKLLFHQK
Chain of UniProt P20789 (whole entry, looked up): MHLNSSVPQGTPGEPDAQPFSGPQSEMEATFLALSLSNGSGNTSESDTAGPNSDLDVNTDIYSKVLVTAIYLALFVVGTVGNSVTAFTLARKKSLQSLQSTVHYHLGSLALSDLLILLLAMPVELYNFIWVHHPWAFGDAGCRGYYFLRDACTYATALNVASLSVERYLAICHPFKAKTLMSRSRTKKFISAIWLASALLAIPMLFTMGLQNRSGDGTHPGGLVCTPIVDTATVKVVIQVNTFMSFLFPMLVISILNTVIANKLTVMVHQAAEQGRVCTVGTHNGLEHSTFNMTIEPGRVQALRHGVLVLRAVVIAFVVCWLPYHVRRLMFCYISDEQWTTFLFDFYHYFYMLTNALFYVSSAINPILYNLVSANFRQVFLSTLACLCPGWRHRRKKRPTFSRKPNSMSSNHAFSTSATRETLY
Chain of UniProt Q02318 (whole entry, looked up): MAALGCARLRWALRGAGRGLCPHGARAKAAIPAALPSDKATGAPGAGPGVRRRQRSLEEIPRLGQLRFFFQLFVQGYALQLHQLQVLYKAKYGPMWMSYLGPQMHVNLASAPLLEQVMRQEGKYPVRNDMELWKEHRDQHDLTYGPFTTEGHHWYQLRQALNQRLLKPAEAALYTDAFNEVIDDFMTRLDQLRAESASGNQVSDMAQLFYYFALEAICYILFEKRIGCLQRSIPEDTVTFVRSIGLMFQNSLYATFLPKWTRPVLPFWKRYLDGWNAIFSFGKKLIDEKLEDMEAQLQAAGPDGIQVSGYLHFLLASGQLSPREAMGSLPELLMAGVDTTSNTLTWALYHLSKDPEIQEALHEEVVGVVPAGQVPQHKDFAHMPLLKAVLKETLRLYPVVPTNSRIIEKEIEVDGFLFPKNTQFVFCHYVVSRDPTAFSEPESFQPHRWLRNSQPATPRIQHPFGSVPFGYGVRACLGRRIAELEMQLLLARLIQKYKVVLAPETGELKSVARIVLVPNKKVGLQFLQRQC
Chain of UniProt Q9BY41 (whole entry, looked up): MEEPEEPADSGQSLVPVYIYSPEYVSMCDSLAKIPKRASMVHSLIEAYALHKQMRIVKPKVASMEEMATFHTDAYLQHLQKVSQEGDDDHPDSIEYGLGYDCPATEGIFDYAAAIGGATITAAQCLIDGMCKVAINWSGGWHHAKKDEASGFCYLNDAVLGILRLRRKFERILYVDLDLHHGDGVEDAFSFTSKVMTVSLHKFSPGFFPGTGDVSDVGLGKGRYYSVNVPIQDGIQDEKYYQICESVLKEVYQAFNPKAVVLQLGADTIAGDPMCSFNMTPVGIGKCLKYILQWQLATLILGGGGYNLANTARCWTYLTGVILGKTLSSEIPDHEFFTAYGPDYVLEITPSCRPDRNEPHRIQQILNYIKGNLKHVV
Chain of UniProt P19784 (whole entry, looked up): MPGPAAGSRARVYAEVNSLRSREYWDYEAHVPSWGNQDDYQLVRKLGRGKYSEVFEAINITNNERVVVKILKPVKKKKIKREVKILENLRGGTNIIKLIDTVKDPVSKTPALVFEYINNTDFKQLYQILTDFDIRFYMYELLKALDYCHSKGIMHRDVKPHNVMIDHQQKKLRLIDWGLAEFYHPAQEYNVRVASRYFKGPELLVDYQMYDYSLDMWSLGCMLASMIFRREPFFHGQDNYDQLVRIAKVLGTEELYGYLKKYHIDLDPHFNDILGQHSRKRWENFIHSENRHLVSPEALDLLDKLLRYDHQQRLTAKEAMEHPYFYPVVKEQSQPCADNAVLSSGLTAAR
Chain of UniProt Q14012 (whole entry, looked up): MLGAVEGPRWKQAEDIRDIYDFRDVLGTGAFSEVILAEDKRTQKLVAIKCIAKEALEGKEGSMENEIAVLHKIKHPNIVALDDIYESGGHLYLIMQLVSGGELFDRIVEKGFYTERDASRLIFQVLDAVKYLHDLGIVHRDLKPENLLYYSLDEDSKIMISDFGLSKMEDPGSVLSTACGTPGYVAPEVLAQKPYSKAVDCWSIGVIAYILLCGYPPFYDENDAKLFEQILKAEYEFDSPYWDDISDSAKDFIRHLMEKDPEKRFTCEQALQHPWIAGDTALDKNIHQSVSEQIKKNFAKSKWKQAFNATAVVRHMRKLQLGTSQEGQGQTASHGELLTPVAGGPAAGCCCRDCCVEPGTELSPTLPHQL
Chain of UniProt Q9Y6L6 (whole entry, looked up): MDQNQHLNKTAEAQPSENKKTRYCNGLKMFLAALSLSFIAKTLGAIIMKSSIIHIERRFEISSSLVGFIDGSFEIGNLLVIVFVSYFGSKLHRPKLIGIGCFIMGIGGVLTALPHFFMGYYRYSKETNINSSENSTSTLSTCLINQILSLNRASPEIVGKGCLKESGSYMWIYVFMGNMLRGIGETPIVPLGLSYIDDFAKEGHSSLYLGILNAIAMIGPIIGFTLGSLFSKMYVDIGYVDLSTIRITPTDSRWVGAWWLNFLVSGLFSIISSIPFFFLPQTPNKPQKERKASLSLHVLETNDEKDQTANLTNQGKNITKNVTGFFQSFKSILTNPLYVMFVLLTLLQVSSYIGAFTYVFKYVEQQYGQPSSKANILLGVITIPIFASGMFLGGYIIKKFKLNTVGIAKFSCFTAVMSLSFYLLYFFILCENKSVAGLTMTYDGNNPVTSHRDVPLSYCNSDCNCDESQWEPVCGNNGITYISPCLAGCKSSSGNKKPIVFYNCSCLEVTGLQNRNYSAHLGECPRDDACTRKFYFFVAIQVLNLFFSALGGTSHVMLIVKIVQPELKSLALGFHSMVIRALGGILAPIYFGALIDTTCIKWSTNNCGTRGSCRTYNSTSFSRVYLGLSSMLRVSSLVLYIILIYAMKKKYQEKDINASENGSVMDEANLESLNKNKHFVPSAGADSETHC

SMILES	tested on	test	test system	setting	how to read	quantity	result
Cc1cc(NC(=O)c2cccc(NC(=O)/C=C/CN(C)C)c2)ccc1Nc1nccc(-c2cccnc2)n1	Casein kinase II subunit alpha' (CSNK2A2, Homo sapiens, UniProt P19784)	enzyme activity, inhibitor	–	1 µM	relative to: vehicle	remaining activity	39%
COc1cccc(OC)c1-c1cc(C(=O)N[C@H](C(=O)O)C2CCCCC2)nn1-c1ccnc2cc(Cl)ccc12	Neurotensin receptor type 1 (Ntsr1, Rattus norvegicus, UniProt P20789)	antagonist, FLIPR calcium	–	–	–	Ke	23 ± 6 nM
CC1=CC(=O)CC(C)(C)C1=O	12-oxophytodienoate reductase OPR3 (isoform 3)	ene-reductase biotransformation, substrate	–	–	–	conversion	95 to 98%
CC(C)CCC[C@@H](C)[C@H]1CC[C@H]2C3=CC=C4C[C@@H](O)CC[C@@]4(C)[C@@H]3CC[C@]12C	Sterol 26-hydroxylase, mitochondrial (CYP27A1, Homo sapiens, UniProt Q02318)	substrate	phospholipid vesicles	–	–	kcat	1.27 s⁻¹
Nc1cc(C(F)(F)F)c(-c2nc(N3CCOCC3)nc(N3CCOCC3)n2)cn1	Calcium/calmodulin-dependent protein kinase type 1 (CAMK1, Homo sapiens, UniProt Q14012)	enzyme activity	–	10 µM	relative to: untreated	remaining activity	76%
CNC(C)C1CCC(N)C(OC2C(N)CC(N)C(OC3OCC(C)(O)C(NC)C3O)C2O)O1 (stereo not drawn)	Klebsiella pneumoniae	–	clinical isolate RKI-No_320/16	–	–	MIC	≤ 0.5 µg/mL
C=CC(=O)N1CCC[C@@H](n2nc(-c3ccc(Oc4ccccc4)cc3)c3c(N)ncnc32)C1	Tyrosine-protein kinase ITK/TSK (ITK, Homo sapiens, UniProt Q08881)	–	human subjects, PBMCs	up to 840 mg	–	receptor occupancy	50%
O=C(CCCCCCc1ccccc1)c1ncc(-c2ccccn2)o1	TRP vanilloid receptors	–	–	concentration not given	–	binding	no binding
CCC(=O)O[C@]1(C(=O)SCF)[C@H](C)C[C@H]2[C@@H]3C[C@H](F)C4=CC(=O)C=C[C@]4(C)[C@@]3(F)[C@@H](O)C[C@@]21C	Glucocorticoid receptor (Nr3c1, Rattus norvegicus, UniProt P06536)	–	rat, spleen	intravenous, 90 nmol/kg, 7.033 (unit not given)	–	receptor occupancy	11.2%
CO[C@H]1/C=C/O[C@@]2(C)Oc3c(C)c(O)c4c(O)c(c(/C=N/N5CCN(C)CC5)c(O)c4c3C2=O)NC(=O)/C(C)=C\C=C\[C@H](C)[C@H](O)[C@@H](C)[C@@H](O)[C@@H](C)[C@H](OC(C)=O)[C@@H]1C	Solute carrier organic anion transporter family member 1B1 (SLCO1B1, Homo sapiens, UniProt Q9Y6L6)	substrate	–	–	–	Km	1.5 to 13 µM
Nc1ncnc2c1ncn2[C@@H]1O[C@H](COP(=O)(O)OP(=O)(O)OP(=O)(O)O)[C@@H](O)[C@H]1O	asparagine synthetase (Escherichia coli)	substrate	–	–	–	Km	270 µM
CCN(c1cc(-c2ccc(CN3CCOCC3)cc2)cc(C(=O)NCc2c(C)cc(C)[nH]c2=O)c1C)C1CCOCC1	Protein arginine N-methyltransferase 6 (PRMT6, Homo sapiens, UniProt Q96LA8)	enzyme activity, inhibitor	–	1 µM	–	inhibition	3 ± 3%
CC1(C)S[C@@H]2[C@H](NC(=O)[C@H](N)c3ccccc3)C(=O)N2[C@H]1C(=O)O	Klebsiella pneumoniae	–	clinical isolate RKI-No_19/16	–	–	MIC	> 16 µg/mL
Cc1cc(-c2cc(Cl)ccc2OCCn2c(C)nc3cc(C(F)(F)F)cc(C#N)c3c2=O)c2scc(C(=O)O)c2n1	eIF4E cap-binding site	fluorescence polarization	–	–	–	activity	85 nM
Nc1ccccc1NC(=O)c1ccc(CNc2nccc(-c3cccnc3)n2)cc1	Histone deacetylase 8 (HDAC8, Homo sapiens, UniProt Q9BY41)	enzyme activity, inhibitor	–	–	–	IC50	inactive

Repeated from above:
SMILES	tested on	test	test system	setting	how to read	quantity	result
O=C(CCCCCCc1ccccc1)c1ncc(-c2ccccn2)o1	TRP vanilloid receptors	–	–	concentration not given	–	binding	no binding
CCC(=O)O[C@]1(C(=O)SCF)[C@H](C)C[C@H]2[C@@H]3C[C@H](F)C4=CC(=O)C=C[C@]4(C)[C@@]3(F)[C@@H](O)C[C@@]21C	Glucocorticoid receptor (Nr3c1, Rattus norvegicus, UniProt P06536)	–	rat, spleen	intravenous, 90 nmol/kg, 7.033 (unit not given)	–	receptor occupancy	11.2%
